Experimental data pooled from the literature.
Each line is one published result; not all experiments were run side by side. “And” joins repeats or separate records; there may be more than shown. Numbers after ± are the reported error.

The IC50 of `CC(C)C12OC1C1OC13C1(C)CCC4=C(COC4=O)C1CC1OC13C2OC(=O)CCCOC1OC(CO)C(O)C(O)C1O` (stereo not shown) is reported as 0.47 µM (sensitive human cancer cell lines; cell viability, XTT).
For `Cc1ccc(C(C)C)cc1.Cc1ccc(C(C)C)cc1.Cc1ccc(C(C)C)cc1.Cc1ccc(C(C)C)cc1.O=S(=O)(O)C(F)(F)F.O=S(=O)(O)C(F)(F)F.O=S(=O)(O)C(F)(F)F.O=S(=O)(O)C(F)(F)F.c1ccc2c3c4ccccc4c(c2c1)-c1cn(nn1)-c1cc[n+](cc1)[Ru-]1[O]c2ccc4c5c(ccc(c25)=[O+]1)=[O+][Ru-]([O]4)[n+]1ccc(cc1)-n1cc(nn1)-c1c2ccccc2c(c2ccccc12)-c1cn(nn1)-c1cc[n+](cc1)[Ru-]1[O]c2ccc4c5c(ccc(c25)=[O+]1)=[O+][Ru-]([O]4)[n+]1ccc(cc1)-n1cc-3nn1`, the IC50 was 4.3 ± 0.25 µM (HCT-15; cell growth, MTT; 24 h, 20 µM preincubated in medium 0 h at 37 °C).
For `CC[C@H](C)[C@@H]1NC(=O)[C@@H]2CCCN2C(=O)[C@H](C)NC(=O)[C@H](CC(C)C)NC(=O)[C@@H]2CCCN2C(=O)[C@H](C)NC(=O)[C@@H]2CSSC[C@H](NC(=O)[C@H](C)NC(=O)[C@H](C)NC(=O)[C@H](Cc3ccc(O)cc3)NC(=O)[C@@H]3CCCN3C(=O)CNC(=O)[C@H](Cc3c[nH]c4ccccc34)NC1=O)C(=O)N[C@@H](CC(C)C)C(=O)N[C@@H](CO)C(=O)N[C@@H](C)C(=O)N[C@H]1CSSC[C@H](NC(=O)[C@H](C(C)C)NC(=O)[C@@H]3CCCN3C(=O)CNC(=O)CNC(=O)CNC(=O)[C@H](C)NC(=O)[C@H](C)NC(=O)[C@H](CC(C)C)NC1=O)C(=O)N[C@@H](CC(C)C)C(=O)N[C@@H](C)C(=O)N[C@@H](C(C)C)C(=O)N2`, the IC50 was greater than 128 µg/mL (U-87 MG; cell growth).
`Cc1cc(Oc2nc(N3CC[C@@H](c4ccncc4)C3)ncc2F)[nH]n1` has an IC50 of 52.5 µM (SW-620; cell proliferation; colon cancer).
With `CCC1=C(C)C2=C(c3ccc(P(=NC(=O)c4ccccn4)(c4ccccc4)c4ccccc4)cc3)c3c(C)c(CC)c(C)n3[B-](C)(C)[N+]2=C1C` the IC50 was 33.7 µM (MCF-10A; cell growth or viability, MTT).
`CCCC[C@H](N)C(=O)N[C@H]1CSCc2ccc(cc2)-c2ccc(cc2)CSC[C@@H](C(=O)N[C@H](C(N)=O)[C@@H](C)O)NC(=O)[C@H](CCCCN)NC(=O)[C@H](CCCCN)NC(=O)[C@H](CCCCN)NC(=O)[C@H](Cc2ccc(O)cc2)NC(=O)[C@H](CC(N)=O)NC(=O)[C@H](CC(C)C)NC1=O` has an IC50 of 17 µM (ASPC1; cell growth or viability, ATP luminescence).
For `CC(=O)N[C@H](C(=O)N[C@@H](CCCNC(=N)N)C(=O)N[C@@H](CCCCN)C(=O)N[C@@H](CCCNC(=N)N)C(=O)N[C@H](C(=O)N[C@@H](CC(C)C)C(=O)N[C@@H](CCCNC(=N)N)C(=O)N[C@@H](CCCNC(=N)N)C(=O)N[C@]1(C)CCCC=CCCC[C@@](C)(C(=O)N[C@@H](CCCNC(=N)N)C(=O)N[C@@H](CCC(=O)O)C(=O)N[C@@H](CC(C)C)C(=O)N[C@H](C(=O)N[C@@H](CCC(=O)O)C(N)=O)C(C)C)NC(=O)[C@H](CCC(N)=O)NC(=O)[C@H](CC(C)C)NC1=O)[C@@H](C)O)C(C)C`, the IC50 was 67.5 ± 7.32 µM (H2030 (wild-type EGFR); cell viability, ATP luminescence; 18 h).
`CC(=O)[O][Pt]([NH2])([NH2])([Cl])([Cl])[O]C(=O)C(Cl)Cl` gave an IC50 of 0.94 ± 0.2 µM (C13* cisplatin-resistant ovarian; cytotoxicity, MTT; 72 h).
The IC50 of `COc1ccccc1-c1ccncc1C(=O)Nc1nnc(OCc2ccc(Cl)cc2)s1` is reported as roughly 12 µM (Brca1 wild-type MEFs; colony survival).
`COc1ccc(C([O-])=CC(=O)c2ccc(C(C)(C)C)cc2)cc1.Cc1ccc(C(C)C)cc1.[Cl-].[Ru+2]` gave an IC50 of roughly 6.9 µM (MIA PaCa-2; cytotoxicity; dark).
The IC50 of `Cc1sc2c(c1C)C(c1ccc(-c3cccc(NC(=O)c4cnn5cccnc45)c3)cc1)=N[C@@H](CC(N)=O)c1nnc(C)n1-2` is reported as 0.0068 µM (THP-1; cell growth or viability, ATP luminescence; 72 h).
The IC50 of `CCOc1ccccc1-n1c(CN2CCNCC2)nc2ccccc2c1=O` is reported as 0.334 µM (SK-MES-1; cell growth or viability; 72 h).
`Cc1sc2c(c1C)C(c1ccc(NC(=O)c3cc([N+](=O)[O-])ccc3F)cc1)=N[C@@H](CC(=O)OC(C)(C)C)c1nnc(C)n1-2` gave an IC50 of 1.2e-05 µM (SET-2; cell growth or viability, ATP luminescence; 72 h).
For `CC(=O)N[C@H](C(=O)N[C@@H](CCCNC(=N)N)C(=O)N[C@@H](CCCCN)C(=O)N[C@@H](CCCNC(=N)N)C(=O)N[C@H](C(=O)N[C@@H](CC(C)C)C(=O)N[C@@H](CCCNC(=N)N)C(=O)N[C@]1(C)CCCC=CCCC[C@@](C)(C(=O)N[C@@H](CCC(=O)O)C(=O)N[C@@H](CCCNC(=N)N)C(=O)N[C@@H](CCC(=O)O)C(=O)N[C@@H](CC(C)C)C(=O)N[C@H](C(=O)N[C@@H](CCC(=O)O)C(N)=O)C(C)C)NC(=O)[C@H](CC(C)C)NC(=O)[C@H](CC(C)C)NC1=O)[C@@H](C)O)C(C)C`, the IC50 was greater than 100 µM (H2030 (wild-type EGFR); cell viability, ATP luminescence; 18 h).
The IC50 of `Cc1cc(Nc2nc(C[C@@]3(C(=O)O)CCN(Cc4cccc(Cl)c4F)[C@H](C)C3)cc(C)c2F)[nH]n1` is reported as 0.0952 µM (HCC1143; cell growth or viability, ATP luminescence; 5 days).
The IC50 of `CC(=O)N[C@H](C(=O)N[C@@H](CCCNC(=N)N)C(=O)N[C@@H](CCCCN)C(=O)N[C@@H](CCCNC(=N)N)C(=O)NC(C)(C)C(=O)N[C@@H](CC(C)C)C(=O)N[C@@H](CCCNC(=N)N)C(=O)N[C@@H](CCCNC(=N)N)C(=O)N[C@@H](CC(C)C)C(=O)N[C@@H](CC(C)C)C(=O)N[C@@H](CCC(N)=O)C(=O)NC(C)(C)C(=O)N[C@@H](CCCNC(=N)N)C(=O)N[C@@H](CCC(=O)O)C(=O)N[C@@H](CC(C)C)C(=O)N[C@H](C(=O)N[C@@H](CCC(=O)O)C(N)=O)C(C)C)C(C)C` is reported as greater than 100 µM (H2030 (wild-type EGFR); cell viability, ATP luminescence; 18 h).
With `CC(=O)N[C@H](C(=O)N[C@@H](CCCNC(=N)N)C(=O)N[C@@H](CCCCN)C(=O)N[C@@H](CCCNC(=N)N)C(=O)N[C@H](C(=O)N[C@@H](CC(C)C)C(=O)N[C@@H](CCCNC(=N)N)C(=O)N[C@]1(C)CCCC=CCCC[C@@](C)(C(=O)N[C@@H](CCC(=O)O)C(=O)N[C@@H](CCCNC(=N)N)C(=O)N[C@@H](CCC(=O)O)C(=O)N[C@@H](CC(C)C)C(=O)N[C@H](C(=O)N[C@@H](CCC(=O)O)C(N)=O)C(C)C)NC(=O)[C@H](CC(C)C)NC(=O)[C@H](CC(C)C)NC1=O)[C@@H](C)O)C(C)C` the IC50 was greater than 100 µM (H2030, wild-type EGFR).
For `Cc1cc(C)cc(COc2cc3c(cc2OCc2cc(C)cc(C)c2)C2CC(O)(Cc4cn(CCOCCOCCOCCNc5ccc6c(c5)C(=O)N(C5CCC(=O)NC5=O)C6=O)nn4)CC(C)N2CC3)c1` (racemic), the IC50 was 2.41 µM (ASPC1; cell growth or viability, MTT).
With `COc1ccc(CC(=O)N2CCN(CC(OCc3ccc4ccccc4c3)c3ccc(Cl)cc3Cl)CC2)cc1` (stereo not shown) the IC50 was 21.1 µM (MDA-MB-468; cell growth or viability, MTT; 24 h).
For `CC(=O)N[C@H](C(=O)N[C@@H](CCCNC(=N)N)C(=O)N[C@@H](CCCCN)C(=O)N[C@@H](CCCNC(=N)N)C(=O)N[C@H](C(=O)N[C@@H](CC(C)C)C(=O)N[C@@H](CCCNC(=N)N)C(=O)N[C@@]1(C)CCCC=CCCC[C@@](C)(C(=O)N[C@@H](CCCNC(=N)N)C(=O)N[C@@H](CCC(=O)O)C(=O)N[C@@H](CC(C)C)C(=O)N[C@H](C(=O)N[C@@H](CCC(=O)O)C(N)=O)C(C)C)NC(=O)[C@H](CCC(N)=O)NC(=O)[C@H](CC(C)C)NC(=O)[C@H](CC(C)C)NC1=O)[C@@H](C)O)C(C)C`, the IC50 was 2.39 µM and 4.47 µM (H2030, wild-type EGFR).
`CC(=O)N[C@H](C(=O)N[C@@H](CCCNC(=N)N)C(=O)N[C@@H](CCCCN)C(=O)N[C@@H](CCCNC(=N)N)C(=O)N[C@]1(C)CCCCCCC=CCCC[C@@](C)(C(=O)N[C@@H](CCCNC(=N)N)C(=O)N[C@@H](CCC(=O)O)C(=O)N[C@@H](CC(C)C)C(=O)N[C@H](C(=O)N[C@@H](CCC(=O)O)C(N)=O)C(C)C)NC(=O)[C@H](CCC(N)=O)NC(=O)[C@H](CC(C)C)NC(=O)[C@H](CC(C)C)NC(=O)[C@H](CCCNC(=N)N)NC(=O)[C@H](CCCNC(=N)N)NC(=O)[C@H](CC(C)C)NC1=O)C(C)C` gave an IC50 of roughly 10 µM (SK-N-MC (no EGFR or ErbB2-4); cell viability, ATP luminescence; 18 h).
For `CC(C)C12OC1C1OC13C1(C)CCC4=C(COC4=O)C1CC1OC13C2OC(=O)CCC(=O)OC1OC(CO)C(O)C(O)C1O` (stereo not shown), the IC50 was 4.16 µM (primary normal human cells; cell viability, XTT).
For `CCOc1ccc(Br)cc1/C=N/NC(=O)CCl`, the IC50 was 0.0789 µM (AMO1; cell growth or viability).
With `CC(=O)N[C@H](C(=O)N[C@@H](CCCNC(=N)N)C(=O)N[C@@H](CCCCN)C(=O)N[C@@H](CCCNC(=N)N)C(=O)N[C@H](C(=O)N[C@@]1(C)CCCC=CCCC[C@@](C)(C(=O)N[C@@H](CCC(N)=O)C(=O)N[C@@H](CCC(=O)O)C(=O)N[C@@H](CCCNC(=N)N)C(=O)N[C@@H](CCC(=O)O)C(=O)N[C@@H](CC(C)C)C(=O)N[C@H](C(=O)N[C@@H](CCC(=O)O)C(N)=O)C(C)C)NC(=O)[C@H](CC(C)C)NC(=O)[C@H](CCCNC(=N)N)NC(=O)[C@H](CCCNC(=N)N)NC1=O)[C@@H](C)O)C(C)C` the IC50 was greater than 50 µM (H2030 (wild-type EGFR); cell viability, ATP luminescence; 18 h).
`COc1ccc(CN2CCN(Cc3ccccc3)CC2)c(O)c1` gave an IC50 of greater than 50 µM (CHO; cytotoxicity, MTT).

Some of these lines once more:
With `COc1ccc(CC(=O)N2CCN(CC(OCc3ccc4ccccc4c3)c3ccc(Cl)cc3Cl)CC2)cc1` (stereo not shown) the IC50 was 21.1 µM (MDA-MB-468; cell growth or viability, MTT; 24 h).
The IC50 of `COc1ccccc1-c1ccncc1C(=O)Nc1nnc(OCc2ccc(Cl)cc2)s1` is reported as roughly 12 µM (Brca1 wild-type MEFs; colony survival).
